{"data": "Experimental data of several laboratories", "note": "Numbered parts are unrelated; each lists some results of a single study."}
{"data": "Study 1", "cell line": "yeast with cyclin F-Cln2 chimera", "read-out": "cell growth", "action": "binder", "technique": "competitive growth deep sequencing", "form": "peptide", "concentration": "concentration not given", "notes": "peptide tiling library", "reading": "direction not given"}
{"Sequence": "DWDTVERQEEEAPSWD", "growth enrichment score": 0.771}
{"Sequence": "IFNKPECGRVQRAIFQ", "growth enrichment score": 1.69}
{"Sequence": "MNQELLSVGSKRRRTG", "growth enrichment score": 1.34}
{"Sequence": "TLPYDLACTGGDFVLF", "growth enrichment score": -0.271}
{"Sequence": "IPMIAKNLMCELDE", "growth enrichment score": 1.02}
{"Sequence": "PKNAKRNLSSEFAN", "growth enrichment score": 0.36}
{"Sequence": "HPESPPRKRLKSKGSD", "growth enrichment score": 1.46}
{"Sequence": "TSSAQRRLEIPSGGAD", "growth enrichment score": 1.91}
{"Sequence": "SNFFDVIKQLFSDEKN", "growth enrichment score": 1.17}
{"Sequence": "TQERKQIHCLSEDELS", "growth enrichment score": 0.406}
{"Sequence": "ASVLSKPIFCFVKD", "growth enrichment score": 0.0848}
{"Sequence": "RKLDLEGIGR", "growth enrichment score": 3.63}
{"Sequence": "PKRAKRKLYTSEISSP", "growth enrichment score": 1.48}
{"Sequence": "GTPKRCLDLSNLSSGE", "growth enrichment score": 1.35}
{"data": "Study 2", "target": "RING finger protein unkempt homolog, zinc fingers 1-6, SBP tag (UNK, Homo sapiens, UniProt Q9C0B0, residues 30-357)", "technique": "RNA Bind-n-Seq", "form": "RNA", "sample": "in vitro", "concentration": "100 nM", "notes": "RNA with constant flanks, vertebrate orthologous sites, ends assumed", "reference": "input RNA pool", "reading": "higher = stronger binding", "all sequences stand within": "GGGAGUUCUACAGUCCGACGAUC … CAACAGAGGAUUGAGCAUCA", "chain of UniProt Q9C0B0 (30-357, looked up)": "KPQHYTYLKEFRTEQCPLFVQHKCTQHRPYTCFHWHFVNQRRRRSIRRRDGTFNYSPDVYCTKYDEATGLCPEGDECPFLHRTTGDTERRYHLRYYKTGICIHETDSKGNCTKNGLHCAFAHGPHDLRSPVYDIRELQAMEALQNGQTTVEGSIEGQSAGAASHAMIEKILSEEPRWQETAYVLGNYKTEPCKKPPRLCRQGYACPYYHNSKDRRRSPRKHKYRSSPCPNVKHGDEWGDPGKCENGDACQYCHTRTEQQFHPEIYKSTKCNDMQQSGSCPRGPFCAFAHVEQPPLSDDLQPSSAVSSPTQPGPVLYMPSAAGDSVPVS"}
{"Strand": "AUGUAGUUUGUUUUUAAUUUCAAGCAAAAUCUUACUGUACUUGAAUGUGCCCUGUUUUGUUAGCACACCUAGACUUGCUGUAACUGUACUCAUGUCCCAGUAUGUACGUUCUUUCUAUGA", "bound/input enrichment": "0.838 ratio"}
{"Strand": "CAACUAUUCUUUCUUAAAUCACAACACUGAAUGCGAAGUAGAACCUUUUUUAGUCACAGUAACUUAGUUUUAGGCCCAUACUGCAGUGAUUUUAUUUCUAUGCAGAUUUUGGAAAAUGUA", "bound/input enrichment": "2.77 ratio"}
{"Strand": "UUUUUUAAAAGUUUUUUUAAUUUAAUUUUUCCUUUCGGGGGUAAAGUUUGCUCUACCAAAUAGUGAUUGUAACAAAUUGAUCUGUUUUGGAUGUUGCUAUAGUGACAUGCAGUUAUAUAU", "bound/input enrichment": "0.86 ratio"}
{"Strand": "UGGCCUGUGGCUGUGUGUUCAAACACCCCUCCCACAGGACUCACUUUGUCCCAACAAUUCAGAUUGCCUAGAAAUACCUUUCUCUUACCUGUUUGUUAUUUAUCAAUUUUUCCCAGUAUU", "bound/input enrichment": "0.479 ratio"}
{"Strand": "AAAUAUUUUAUCAUUUGAUUAAAAUUAGAUAAGAAAUUACUGUUCAUUUUUCCUUUGCAACAAGCUUAUCCUAUUUUUUAAUCUAUUUUGCAAAAUAUCGGUUGUGUAUGGUUGCUUGAC", "bound/input enrichment": "0.491 ratio"}
{"Strand": "AUAAUCACUCUAAUUGUAAUCUGAAAAAAGUGUAACAUUGUGUAGCCUUUUUGUAUAAAAUAGACAAAUAGAAAUGGUCCAAAUAGUUUCCUUUUUAAUAUGCUUAAAAUAAGCAGGUGG", "bound/input enrichment": "1.45 ratio"}
{"Strand": "AGCAACUCAAGGAUUCAGGACUGGUUUUACAAAUAUAGCAAGCAAAUAUGGAACUAACAGUAGAGGGCAGCCCAGACCAUGAAACACUGACAUUUGAUCUUAUUUAUUCUUAUUAGGGGU", "bound/input enrichment": "1.06 ratio"}
{"Strand": "CAGUUCCUCGGACUGUCUUUCAGGUUGUGGCUGGCCCAUUUUCCAUUCUUUCUCUCUUACUUUCAUGCACAUGUUUUCAUUUCACAACUUCUUUCAGCAAAAGCACAUGUGGGUAUUUCU", "bound/input enrichment": "0.49 ratio"}
{"data": "Study 3", "target": "Histone acetyltransferase KAT6A, winged helix 1, GST fusion (KAT6A, Homo sapiens, UniProt Q92794, residues 1-85)", "technique": "protein binding microarray", "form": "double-stranded DNA, one strand shown", "sample": "in vitro", "concentration": "not given", "notes": "8-mer, flanks averaged, mean of 2 arrays, mostly near background", "reference": "not given", "reading": "higher = stronger binding", "Residues (chain)": "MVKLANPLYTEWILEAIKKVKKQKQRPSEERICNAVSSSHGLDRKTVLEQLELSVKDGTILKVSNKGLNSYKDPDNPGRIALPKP"}
{"Strand": "CTCTTTGC", "E-score": -0.0101}
{"Strand": "GGTGACAA", "E-score": 0.0335}
{"Strand": "ACGTCTTG", "E-score": -0.0285}
{"Strand": "AACCACCC", "E-score": 0.0398}
{"Strand": "CCTCTGTC", "E-score": -0.0635}
{"Strand": "CCATTTTC", "E-score": -0.158}
{"Strand": "CCAGCAAC", "E-score": -0.16}
{"Strand": "AAATAGCT", "E-score": -0.216}
{"Strand": "ATTACAGA", "E-score": -0.05}
{"Strand": "GACCCGTA", "E-score": 0.262}
{"Strand": "ATGCTTGA", "E-score": -0.101}
{"Strand": "CTAAACAA", "E-score": -0.229}
{"Strand": "CCTGGGCG", "E-score": 0.0258}
{"Strand": "GATAGCGC", "E-score": 0.356}
{"Strand": "AGGAGACA", "E-score": -0.133}
{"Strand": "AATTTTCA", "E-score": -0.254}
{"Strand": "GGCCCGCC", "E-score": 0.363}
{"Strand": "GATTCTGC", "E-score": -0.113}
{"Strand": "GCTGGACA", "E-score": -0.0799}
{"Strand": "TAACTATA", "E-score": -0.124}
{"Strand": "CATCCCTC", "E-score": -0.13}
{"Strand": "AGCAGCAC", "E-score": -0.237}
{"Strand": "CACTATAA", "E-score": -0.128}
{"Strand": "CGATGCAA", "E-score": -0.0208}
{"Strand": "AACACCAA", "E-score": -0.246}
{"data": "Study 4", "target": "RNA binding protein fox-1 homolog 2, RRM domain, GST-SBP tag (RBFOX2, Homo sapiens, UniProt O43251-10, residues 100-194)", "technique": "RNA Bind-n-Seq", "form": "RNA", "sample": "in vitro", "concentration": "365 nM", "notes": "natural RNA segment, single round, ends assumed", "reference": "no-protein control", "reading": "higher = stronger binding", "all sequences stand within": "GGGAGUUCUACAGUCCGACGAUC … UGGAAUUCUCGGGUGCCAA", "Residues (chain)": "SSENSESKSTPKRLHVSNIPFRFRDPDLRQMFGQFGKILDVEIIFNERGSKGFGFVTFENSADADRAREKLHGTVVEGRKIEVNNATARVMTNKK"}
{"Strand": "CGCCUCUAGUAGAUGGUAGUGGUGGGGCUAGUGUGUGGCUGUUACCUGGGCCGCUCAAAUUCAUUCCAGGGAGGAGGCUCCACUGCAUUCUUUGGCUGUGCCCUGAGGGU", "RBNS enrichment (R)": 1.95}
{"Strand": "AGUUUUCCUUUGUAUUCACUUCCAUUUUUACUUAAUAACUGACUUGUUGGUGGCUCUUAUUUCUGAAUUCAAAGCUUGUGAAAAAAAAUAAAGAAAUUAAAUUGCCCGUU", "RBNS enrichment (R)": 1.72}
{"Strand": "UAGAACAGAGGUAUUUGCAACCUGAAAAACCACUUUUAAUAAGAGCUGUAUGAUAAAUUGUUGAAAUGCAAGUGUAAAUAUUUUUUAUGUUAAUCCAGUUUCCUAUUAGA", "RBNS enrichment (R)": 1.66}
{"Strand": "CCAGGUGUAGGGCAUGUUCAUGAAUAUCAAAUCUUUUGAUGCUGGACCCAAGAGAGGAAAAGUUGUAGCUAAAUGUUGAUUUACUUAUAACUAGACGUCUAUGUGAGAAA", "RBNS enrichment (R)": 0.585}
{"Strand": "CAUGAAUGAUAACAGGCCUCGGCUUUAUCACCCAAAAAAUAACUUGAAUUCUAUGUGAAAUGUGUUAGGAUAAGUUUGCUCUGUCUCUAGAGUUCAAUGUAGAAGAUAAU", "RBNS enrichment (R)": 1.59}
{"Strand": "GAGGCUGGCUUUGAACUUGGGAUCCUGAGGCUUCAGACUCCCAGGUGGCUGUUUAUUCUCUCUAACCAGCUCUGUUAGAUAUUUCCUCUAAUCAAGCUAAUUGGUUACUG", "RBNS enrichment (R)": 0.323}
{"Strand": "CUGGGUUACCCGUGUGUGUUAUCGUUUAAACUGUAUUCACAUAAUGUCAUUUGCCUUGCUCACUUGUAACCCCUUCCUCAGGUCCAAGAGAAUGGGAGGAGGGUCAUGUU", "RBNS enrichment (R)": 0.851}
{"Strand": "GUGGGUGUUUGCCGGCCAGAUCUUUCCUGGCAUGCGGACUGUGAGGCAAAGCACGGGUGAAGGUAGGCGCUAAAGGCUUUGGGCUAAAGCCAGCACGCGGUUCUGUGCUA", "RBNS enrichment (R)": 1.72}
{"note": "For quick reference, copied from above (study 3):"}
{"Strand": "AATTTTCA", "E-score": -0.254}
{"Strand": "GATAGCGC", "E-score": 0.356}
{"Strand": "GGTGACAA", "E-score": 0.0335}
{"Strand": "AACCACCC", "E-score": 0.0398}
{"Strand": "CCATTTTC", "E-score": -0.158}
{"Strand": "TAACTATA", "E-score": -0.124}
{"Strand": "CTCTTTGC", "E-score": -0.0101}
